Experimental data pooled from the literature.
Parts stem from different laboratories: compare values within a part only.
Sequence of UniProt P42336 (whole entry, unmodified, looked up): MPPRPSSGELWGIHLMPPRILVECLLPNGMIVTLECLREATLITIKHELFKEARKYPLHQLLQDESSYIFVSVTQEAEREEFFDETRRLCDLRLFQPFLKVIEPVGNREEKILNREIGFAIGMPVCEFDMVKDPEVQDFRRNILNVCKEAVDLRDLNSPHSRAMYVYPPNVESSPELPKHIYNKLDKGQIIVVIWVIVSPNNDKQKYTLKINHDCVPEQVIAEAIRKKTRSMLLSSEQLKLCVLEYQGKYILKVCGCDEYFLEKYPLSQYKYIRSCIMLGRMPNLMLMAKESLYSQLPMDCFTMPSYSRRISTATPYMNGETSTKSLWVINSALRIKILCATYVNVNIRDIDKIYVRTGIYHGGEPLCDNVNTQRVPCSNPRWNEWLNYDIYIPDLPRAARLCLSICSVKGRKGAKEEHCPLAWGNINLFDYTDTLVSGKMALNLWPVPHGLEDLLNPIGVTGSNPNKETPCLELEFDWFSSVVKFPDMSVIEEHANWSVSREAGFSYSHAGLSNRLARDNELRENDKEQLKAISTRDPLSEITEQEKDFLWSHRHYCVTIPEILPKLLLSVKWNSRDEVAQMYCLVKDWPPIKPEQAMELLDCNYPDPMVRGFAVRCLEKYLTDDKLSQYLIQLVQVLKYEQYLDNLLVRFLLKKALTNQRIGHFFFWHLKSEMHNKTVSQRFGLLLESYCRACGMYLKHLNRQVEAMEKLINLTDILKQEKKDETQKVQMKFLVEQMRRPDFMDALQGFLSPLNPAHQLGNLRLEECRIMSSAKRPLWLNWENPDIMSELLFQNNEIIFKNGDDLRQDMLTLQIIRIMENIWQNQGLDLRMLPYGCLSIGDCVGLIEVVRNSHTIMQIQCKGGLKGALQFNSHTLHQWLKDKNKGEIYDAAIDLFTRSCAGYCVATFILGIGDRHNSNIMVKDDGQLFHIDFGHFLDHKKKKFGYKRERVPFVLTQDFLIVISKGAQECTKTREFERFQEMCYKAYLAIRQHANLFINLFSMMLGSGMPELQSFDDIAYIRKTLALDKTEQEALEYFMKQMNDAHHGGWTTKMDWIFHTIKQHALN
Sequence of UniProt P19784 (whole entry, looked up): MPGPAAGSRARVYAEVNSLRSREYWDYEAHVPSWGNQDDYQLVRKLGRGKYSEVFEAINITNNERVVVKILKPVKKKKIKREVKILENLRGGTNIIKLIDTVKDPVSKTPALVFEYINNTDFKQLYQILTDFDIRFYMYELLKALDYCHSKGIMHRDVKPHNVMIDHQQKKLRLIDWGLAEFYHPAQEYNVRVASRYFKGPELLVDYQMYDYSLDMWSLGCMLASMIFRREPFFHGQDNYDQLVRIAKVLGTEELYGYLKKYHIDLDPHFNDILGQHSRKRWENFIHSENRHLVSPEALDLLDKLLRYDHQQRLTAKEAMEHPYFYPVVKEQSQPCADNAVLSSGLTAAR
Sequence of UniProt P29597 (whole entry, looked up): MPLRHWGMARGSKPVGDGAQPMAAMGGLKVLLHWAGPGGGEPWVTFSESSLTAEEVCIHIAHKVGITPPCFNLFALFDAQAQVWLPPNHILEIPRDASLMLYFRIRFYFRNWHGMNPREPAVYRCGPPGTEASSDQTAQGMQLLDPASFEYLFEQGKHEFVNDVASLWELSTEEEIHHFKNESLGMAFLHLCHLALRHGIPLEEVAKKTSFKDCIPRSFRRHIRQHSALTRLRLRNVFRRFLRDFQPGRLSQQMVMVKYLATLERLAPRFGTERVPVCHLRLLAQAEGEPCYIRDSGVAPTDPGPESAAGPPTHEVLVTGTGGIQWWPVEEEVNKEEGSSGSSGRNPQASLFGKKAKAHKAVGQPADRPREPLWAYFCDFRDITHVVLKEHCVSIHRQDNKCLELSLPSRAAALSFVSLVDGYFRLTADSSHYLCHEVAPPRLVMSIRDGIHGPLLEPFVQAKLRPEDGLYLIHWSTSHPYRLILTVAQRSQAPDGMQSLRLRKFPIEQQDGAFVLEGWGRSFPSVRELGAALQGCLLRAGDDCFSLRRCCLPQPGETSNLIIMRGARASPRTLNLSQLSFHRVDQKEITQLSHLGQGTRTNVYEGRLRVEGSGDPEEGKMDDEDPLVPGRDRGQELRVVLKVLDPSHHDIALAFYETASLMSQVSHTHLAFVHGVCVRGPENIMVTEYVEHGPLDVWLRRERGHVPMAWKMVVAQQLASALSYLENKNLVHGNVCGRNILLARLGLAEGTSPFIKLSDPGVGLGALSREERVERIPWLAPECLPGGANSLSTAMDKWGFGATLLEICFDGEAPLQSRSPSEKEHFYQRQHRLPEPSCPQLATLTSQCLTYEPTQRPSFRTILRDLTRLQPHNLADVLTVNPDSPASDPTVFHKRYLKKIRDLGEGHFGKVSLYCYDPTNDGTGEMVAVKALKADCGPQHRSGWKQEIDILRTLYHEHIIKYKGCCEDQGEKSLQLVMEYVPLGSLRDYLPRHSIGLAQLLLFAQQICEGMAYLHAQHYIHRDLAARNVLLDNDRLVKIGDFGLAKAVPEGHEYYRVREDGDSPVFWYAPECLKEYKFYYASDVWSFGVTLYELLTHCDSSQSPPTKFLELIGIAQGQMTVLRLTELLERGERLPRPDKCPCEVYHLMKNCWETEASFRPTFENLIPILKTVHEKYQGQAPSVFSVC
Sequence of UniProt Q12851 (whole entry, looked up): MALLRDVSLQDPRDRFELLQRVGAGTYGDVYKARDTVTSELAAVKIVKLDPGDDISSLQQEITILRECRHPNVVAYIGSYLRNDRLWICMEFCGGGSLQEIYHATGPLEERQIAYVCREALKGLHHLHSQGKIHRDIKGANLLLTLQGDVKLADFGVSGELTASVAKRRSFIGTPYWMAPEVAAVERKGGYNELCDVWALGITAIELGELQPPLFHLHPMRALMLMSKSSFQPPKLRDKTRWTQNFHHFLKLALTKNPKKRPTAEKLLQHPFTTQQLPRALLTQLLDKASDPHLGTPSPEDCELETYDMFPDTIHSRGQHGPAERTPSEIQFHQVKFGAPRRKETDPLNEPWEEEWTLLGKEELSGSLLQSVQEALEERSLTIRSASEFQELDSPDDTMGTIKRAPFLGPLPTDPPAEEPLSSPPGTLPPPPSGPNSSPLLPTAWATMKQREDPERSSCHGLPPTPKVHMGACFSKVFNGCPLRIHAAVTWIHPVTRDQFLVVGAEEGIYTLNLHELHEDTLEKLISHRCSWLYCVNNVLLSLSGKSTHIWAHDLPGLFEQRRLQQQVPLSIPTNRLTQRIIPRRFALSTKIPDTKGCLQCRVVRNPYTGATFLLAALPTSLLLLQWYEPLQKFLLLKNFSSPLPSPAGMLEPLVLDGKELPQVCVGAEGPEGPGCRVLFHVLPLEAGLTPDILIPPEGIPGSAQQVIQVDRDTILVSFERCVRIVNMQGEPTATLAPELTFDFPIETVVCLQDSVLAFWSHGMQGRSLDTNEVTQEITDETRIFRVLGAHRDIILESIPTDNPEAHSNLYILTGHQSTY
Sequence of UniProt Q9HBH9 (whole entry, looked up): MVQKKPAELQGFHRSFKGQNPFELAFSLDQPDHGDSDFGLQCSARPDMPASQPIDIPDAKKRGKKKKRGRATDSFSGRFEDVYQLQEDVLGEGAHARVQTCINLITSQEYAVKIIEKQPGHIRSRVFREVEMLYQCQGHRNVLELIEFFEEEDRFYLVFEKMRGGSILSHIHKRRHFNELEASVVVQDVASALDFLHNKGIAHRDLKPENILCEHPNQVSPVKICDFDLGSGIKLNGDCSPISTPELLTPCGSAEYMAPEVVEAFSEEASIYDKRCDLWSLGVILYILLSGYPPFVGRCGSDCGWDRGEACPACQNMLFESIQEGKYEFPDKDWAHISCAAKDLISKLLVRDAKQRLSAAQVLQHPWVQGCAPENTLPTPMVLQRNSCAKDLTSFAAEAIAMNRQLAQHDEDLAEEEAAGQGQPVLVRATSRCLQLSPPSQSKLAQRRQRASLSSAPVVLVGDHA
Sequence of UniProt P48730 (whole entry, looked up): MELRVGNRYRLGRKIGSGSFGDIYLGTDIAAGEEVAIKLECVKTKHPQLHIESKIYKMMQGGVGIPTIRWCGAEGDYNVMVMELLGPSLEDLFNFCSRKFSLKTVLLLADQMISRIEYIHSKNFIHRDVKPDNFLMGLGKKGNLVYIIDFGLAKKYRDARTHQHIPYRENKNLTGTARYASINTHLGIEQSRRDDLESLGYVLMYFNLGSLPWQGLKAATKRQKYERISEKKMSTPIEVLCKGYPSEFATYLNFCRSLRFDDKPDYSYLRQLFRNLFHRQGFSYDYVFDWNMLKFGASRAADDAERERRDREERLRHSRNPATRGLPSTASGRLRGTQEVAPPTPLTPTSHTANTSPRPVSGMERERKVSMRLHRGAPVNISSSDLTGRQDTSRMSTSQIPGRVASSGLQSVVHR

Set 1
SMILES: CN1CCN(c2cnc3c(C4CCN(C(=O)c5ccc(OC(F)(F)F)cc5N)CC4)ncnc3c2)CC1
Concentration: 1 µM
For Casein kinase I isoform delta (CSNK1D, Homo sapiens, UniProt P48730); cell-free assay, competition with immobilised ligand: remaining binding read 100%.
The remaining binding was 95% (Dual specificity mitogen-activated protein kinase kinase 1 (MAP2K1, Homo sapiens, UniProt Q02750); cell-free assay, competition with immobilised ligand).
It gave 100% for remaining binding (Proto-oncogene tyrosine-protein kinase Src (SRC, Homo sapiens, UniProt P12931); cell-free assay, competition with immobilised ligand).
Bone morphogenetic protein receptor type-2 (BMPR2, Homo sapiens, UniProt Q13873); cell-free assay, competition with immobilised ligand — remaining binding: 100%.
Serine/threonine-protein kinase haspin (HASPIN, Homo sapiens, UniProt Q8TF76); cell-free assay, competition with immobilised ligand — remaining binding: 100%.
Epidermal growth factor receptor (EGFR, Homo sapiens, UniProt P00533, del747-750/T751S); cell-free assay, competition with immobilised ligand — remaining binding: 77%.
It gave 93% for remaining binding (Non-receptor tyrosine-protein kinase TYK2, JH1 (TYK2, Homo sapiens, UniProt P29597); cell-free assay, competition with immobilised ligand).
Hepatocyte growth factor receptor (MET, Homo sapiens, UniProt P08581, Y1235D); cell-free assay, competition with immobilised ligand — remaining binding: 73%.
The remaining binding was 100% (Bone morphogenetic protein receptor type-1B (BMPR1B, Homo sapiens, UniProt O00238); cell-free assay, competition with immobilised ligand).
The remaining binding was 100% (AP2-associated protein kinase 1 (AAK1, Homo sapiens, UniProt Q2M2I8); binding).
The remaining binding was 93% (Casein kinase II subunit alpha' (CSNK2A2, Homo sapiens, UniProt P19784); cell-free assay, competition with immobilised ligand).
Mitogen-activated protein kinase 11 (MAPK11, Homo sapiens, UniProt Q15759); cell-free assay, competition with immobilised ligand — remaining binding: 98%.
It gave 100% for remaining binding (MAP kinase-interacting serine/threonine-protein kinase 2 (MKNK2, Homo sapiens, UniProt Q9HBH9); cell-free assay, competition with immobilised ligand).
The remaining binding was 82% (Mitogen-activated protein kinase kinase kinase kinase 2 (MAP4K2, Homo sapiens, UniProt Q12851); cell-free assay, competition with immobilised ligand).
It gave 100% for remaining binding (Phosphatidylinositol 4,5-bisphosphate 3-kinase catalytic subunit alpha isoform (PIK3CA, Homo sapiens, UniProt P42336, Q546K); cell-free assay, competition with immobilised ligand).

Set 2
Cell line: A-375
Concentration: 100 µM
Time: 36 h
`Cc1cc(-n2c(=O)[nH]c(=O)n(C)c2=O)ccc1Oc1ccc(SC(F)(F)F)cc1` has a viability of 12.6%.
The viability of `C[C@@H](NCCc1ccc(O)cc1)[C@@H](O)c1ccc(O)cc1` (racemic) is reported as 103%.
`Cc1cn(-c2cc(NC(=O)c3ccc(C)c(Nc4nccc(-c5cccnc5)n4)c3)cc(C(F)(F)F)c2)cn1` has a viability of 1.52%.

Set 3
Host: human
Matrix: microsomes or S9
Concentration: 2 µM
Time: 0.5 h
For `CCN(CC)S(=O)(=O)c1ccc(S(=O)(=O)NC(C)c2nncn2C)cc1` (stereo not drawn), the remaining compound was over 99%.
`NCC1Cc2cc(F)cc(-c3ccnc4c(C(F)(F)F)cccc34)c2O1` (stereo not drawn) gave a remaining compound of over 99.9%.
`CN(C)C(=O)C1CNCCN1C(=O)OC(C)(C)C` (stereo not drawn) has a remaining compound of 88.3%.

Set 4
Target: Ras GTPase-activating protein-binding protein 1, C-terminal RGG region (G3BP1, Homo sapiens, UniProt Q13283)
Sequence of UniProt Q13283 (whole entry, looked up): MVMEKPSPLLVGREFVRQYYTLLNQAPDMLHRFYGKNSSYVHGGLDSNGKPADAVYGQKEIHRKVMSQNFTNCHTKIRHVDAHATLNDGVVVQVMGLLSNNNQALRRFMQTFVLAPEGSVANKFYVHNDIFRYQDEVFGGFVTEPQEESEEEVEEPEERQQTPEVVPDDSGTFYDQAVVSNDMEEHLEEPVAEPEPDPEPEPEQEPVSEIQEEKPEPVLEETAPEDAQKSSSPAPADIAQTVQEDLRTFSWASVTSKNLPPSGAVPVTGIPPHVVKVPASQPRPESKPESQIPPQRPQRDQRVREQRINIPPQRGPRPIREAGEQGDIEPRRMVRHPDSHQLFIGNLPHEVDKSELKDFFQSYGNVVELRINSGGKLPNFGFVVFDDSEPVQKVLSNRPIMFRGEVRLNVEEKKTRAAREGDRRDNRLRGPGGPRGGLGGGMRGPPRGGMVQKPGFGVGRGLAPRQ
Method: RNA Bind-n-Seq
Molecule type: RNA
Matrix: in vitro
Concentration: 1 µM
Notes: whole 134-nt RNA, ends assumed
With: 150 mM KCl
Reference: input library
Reading: higher = stronger binding
With `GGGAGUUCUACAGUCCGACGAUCCCUGUGCUACACAUCGUAUGUACCGAAUCAAAUUUUUAAACCCCCCCAAAUUUUUUUAAAAAAGUAUUAUGUUACGCCGUUCGGAUCUGCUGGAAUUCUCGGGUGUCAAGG` the log2 enrichment was -0.724.
`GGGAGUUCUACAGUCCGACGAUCCUCAAGUCCUGUGCUACACAUCGUAUGUACCGAAUCGGGGAGGGGAGGGGAGGAAAGUAUUAUGUUACGCCGUUCGGAUCUGCACUUCCAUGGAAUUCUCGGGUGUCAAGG` gave a log2 enrichment of 1.07.
The log2 enrichment of `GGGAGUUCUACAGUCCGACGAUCCUGUGCUACACAUCGUAUGUACCGAAUCGGGGUUUUUGGGGUUUUUGGGGAAAAAAAGGGGAAAGUAUUAUGUUACGCCGUUCGGAUCUGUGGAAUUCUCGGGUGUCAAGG` is reported as -0.175.
`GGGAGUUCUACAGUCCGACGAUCCCUCAAGUCCUGUGCUACACAUCGUAUGUACCGAAUCGGGCGGGCGGGCGGGAAAGUAUUAUGUUACGCCGUUCGGAUCUGCACUUCCAGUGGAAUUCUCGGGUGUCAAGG` gave a log2 enrichment of 1.73.
The log2 enrichment of `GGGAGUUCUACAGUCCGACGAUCCUGUGCUACACAUCGUAUGUACCGAAUCGGAAAAAAAGGAAAAAAAGGGGAAAAAAAGGGGAAAGUAUUAUGUUACGCCGUUCGGAUCUGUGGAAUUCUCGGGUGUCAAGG` is reported as -1.44.
The log2 enrichment of `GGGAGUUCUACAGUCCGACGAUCCCUCAAGUCCUGUGCUACACAUCGUAUGUACCGAAUCGUGUGUGUGUGUGUGUAAAGUAUUAUGUUACGCCGUUCGGAUCUGCACUUCCAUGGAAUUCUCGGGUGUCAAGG` is reported as 0.282.
`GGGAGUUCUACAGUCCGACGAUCUGGCUUCGAAGUACAGUCUUUGCAGGAUGCAGGAAAUCAGCUUGGUAUGGAGGAUACAUCUCUGAGCUCUGGAAUGCUCACCCAGAACACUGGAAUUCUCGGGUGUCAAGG` gave a log2 enrichment of -0.957.
With `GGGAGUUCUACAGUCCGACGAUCGUGCUACACAUCGUAUGUACCGAAUCGGGGUUUUUUUGGGGAAAAAAAGGGGAAAAAAAGGGGAAAGUAUUAUGUUACGCCGUUCGGAUCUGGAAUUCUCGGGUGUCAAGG` the log2 enrichment was 0.117.

Single results of other studies
The inhibition of `CCN1CC(CCN2CCOCC2)C(c2ccccc2)(c2ccccc2)C1=O.Cl` (stereo not drawn) is reported as -14.4% (Sarcocystis neurona; parasite growth; 10 µM, secondary screen).

Repeated from above (set 4):
`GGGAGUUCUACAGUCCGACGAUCCUCAAGUCCUGUGCUACACAUCGUAUGUACCGAAUCGGGGAGGGGAGGGGAGGAAAGUAUUAUGUUACGCCGUUCGGAUCUGCACUUCCAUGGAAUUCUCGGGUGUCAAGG` gave a log2 enrichment of 1.07.
The log2 enrichment of `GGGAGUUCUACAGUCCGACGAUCCUGUGCUACACAUCGUAUGUACCGAAUCGGGGUUUUUGGGGUUUUUGGGGAAAAAAAGGGGAAAGUAUUAUGUUACGCCGUUCGGAUCUGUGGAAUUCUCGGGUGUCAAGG` is reported as -0.175.
